Experimental data collected from several papers.
Protocols differ between the studies behind these lines. ± marks the error that the study gave.
UniProt O43242, sequence (whole entry, looked up): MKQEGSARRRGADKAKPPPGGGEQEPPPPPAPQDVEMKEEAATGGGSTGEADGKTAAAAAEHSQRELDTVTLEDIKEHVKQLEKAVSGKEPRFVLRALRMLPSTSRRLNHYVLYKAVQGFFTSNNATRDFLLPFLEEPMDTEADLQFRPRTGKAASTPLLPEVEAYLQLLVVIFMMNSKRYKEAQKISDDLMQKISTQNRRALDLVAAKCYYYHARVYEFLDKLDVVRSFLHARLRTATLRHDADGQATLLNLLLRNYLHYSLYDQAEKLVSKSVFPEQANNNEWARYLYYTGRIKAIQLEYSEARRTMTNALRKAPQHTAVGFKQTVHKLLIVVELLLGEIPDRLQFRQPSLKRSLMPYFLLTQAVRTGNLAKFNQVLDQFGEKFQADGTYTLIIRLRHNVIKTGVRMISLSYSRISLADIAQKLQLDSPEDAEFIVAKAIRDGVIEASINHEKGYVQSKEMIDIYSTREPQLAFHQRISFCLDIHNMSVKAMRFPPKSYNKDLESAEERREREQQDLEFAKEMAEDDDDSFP

Compound | target or system | test | system | conditions | scale | measurement | result
O=S(=O)(Nc1ccccc1)c1ccc(NC(=S)Nc2ccccc2)cc1 |  |  | mouse, female, blood | oral, 80 mg/kg daily, 14 days |  | mean platelet volume | 4.85 fL
CN1CC[C@@H](c2c(O)cc(O)c3c(=O)cc(-c4ccc(C(F)(F)F)cc4Cl)oc23)[C@@H]1CO |  | item: Anorexia | relapsed or refractory haematological malignancies | oral, dose not given, all grades |  | adverse event incidence | 17.5%
Cn1cncc1-c1c(F)cncc1NC(=O)c1c(N)nn2cc(F)cnc12 |  |  | human patients | oral, 220 mg once daily, 21 days |  | dose-limiting toxicity upper GI haemorrhage | 0%
OCc1ncc2n1-c1ccc(Cl)cc1C(c1ccccc1F)=NC2 | CYP3A4 (human) |  | human, plasma | oral, 2 mg midazolam, added: encorafenib at steady state | relative to: Day -7 probe alone | AUClast increase | 5%
Cn1ncc(-c2nc(N[C@H]3CC[C@H](N)CC3)ncc2Cl)c1CC1CC1 |  | item: dyspnea any grade | human patients phase I | dose not given |  | adverse event incidence | 37%
COc1ccnc(C(=O)N[C@H]2COC(=O)[C@H](Cc3ccccc3)[C@@H](OC(=O)C(C)C)[C@H](C)OC2=O)c1OCOC(=O)C(C)C |  |  | wheat grain | -18 °C |  | storage stability of residues | 9 months
Clc1cc(Cl)c(-c2c(Cl)cc(Cl)cc2Cl)c(Cl)c1 |  |  | fresh water | 20 °C |  | log K(PDMS-water) | 6.6 ± 0.05
CN[C@H]1CC[C@@H](c2ccc(Cl)c(Cl)c2)c2ccccc21 |  |  | CD-1 mouse, male, lung | intraperitoneal, 1 mg/kg |  | Tmax | 1 h
N.N.[Cl][Pt][Cl] |  |  | mouse xenograft model | dose not given, day 10, group mean |  | body weight | 19.2 g
Clc1cc(Cl)c(-c2cc(Cl)c(Cl)cc2Cl)cc1Cl |  |  | fresh water | 20 °C, S30-1 sampler, 30 µm |  | log K(PDMS-water) | 6.39 ± 0.06
CCc1ccc(CC/C=C/c2ccc3c(c2)C(=O)CC3)cc1 |  |  | Sprague-Dawley rat, male | oral, 450 mg/kg/day, 14 days |  | Erythrocyte percentage | 13.5%
CN(C(=O)n1cnc(-c2ccc[n+]([O-])c2)c1)C1CCCCC1 |  |  | Wistar rat, hippocampus | oral, 10 mg/kg, 4 h, single dose |  | concentration | 125 ± 38.8 ng/g
CN1CCN(c2ccc(Nc3nccc(-c4cccc(Cl)c4)n3)cc2C(F)(F)F)CC1 |  |  | zebrafish embryos | 50 µM, 5 d |  | toxicity | 0%
CC(C)C[C@H](NC(=O)[C@H](Cc1ccccc1)NC(=O)[C@H](Cc1ccccc1)NC(=O)Cc1ccc(-c2ccccc2)cc1)C(=O)N[C@@H](CCCCN)C(=O)N[C@@H](CCCNC(=N)N)C(=O)N[C@H](C(=O)N[C@@H](Cc1c[nH]c2ccccc12)C(=O)N[C@@H](CCCCN)C(=O)N[C@@H](CCCNC(=N)N)C(=O)O)C(C)C |  |  | dog liver microsomes |  |  | hepatic clearance | 19.5 mL/min/kg
O=C(Nc1ccccc1)C1CCN(C(=O)Oc2cccnc2)CC1 |  | adverse event reporting | healthy women | oral, 100 mg, 9 days |  | subjects with cardiac disorders | 0%
C[C@]1(CO)Cc2ncn(-c3ccc(C#N)c(Cl)c3)c2C(=O)O1 |  |  | human, plasma | 10 mg single dose, geometric mean |  | AUC(0-inf) | 2.53 µM·h
NC(=O)[C@H]1CCN(c2ncnc(N)c2F)C[C@@H]1N1CCC[C@@H](Nc2cc(Cl)cc(C(F)(F)F)c2)C1=O |  |  | B-cell malignancy patients | oral, 41 mg twice daily, dose |  | any grade ≥3 adverse event | 80%
CC/C(=C(\c1ccccc1)c1ccc(OCCN(C)C)cc1)c1ccccc1 |  |  | CD-1 mouse, male, plasma | intraperitoneal, 3 mg/kg |  | Tmax | 2 h

Compound | target or system | test | system | conditions | scale | measurement | result
CC(C)CC(=O)OC[C@H]1O[C@@](C#N)(c2ccc3c(N)ncnn23)[C@H](O)[C@@H]1O |  | plasma protein binding | mouse plasma | 90 µM |  | unbound fraction | 0.193
Cc1ccccc1C(=O)NN=Cc1ccc(O)c(Br)c1 |  |  | normal C3H/HeN mouse, plasma | intraperitoneal, 1.6 mg/kg |  | AUC(0-t) | 175 ng·h/mL
CC(C)C1CCC(N2CCC(N3C(=O)C(=O)c4ccccc43)CC2)CC1 (stereo not drawn) |  |  | conscious Sprague-Dawley rat | intravenous bolus, 100 nmol/kg |  | persistence of sedation | ~30 min
O=C(Nc1ccccc1)C1CCN(C(=O)Oc2cccnc2)CC1 |  | item: Dizziness | healthy female human | concentration not given, all doses pooled |  | adverse event incidence | 8%
CO[C@H]1C[C@@H]2CC[C@@H](C)[C@@](O)(O2)C(=O)C(=O)N2CCCC[C@H]2C(=O)O[C@H]([C@H](C)C[C@@H]2CC[C@@H](OC(=O)NCCOCCOCCOCCOCCOCCOCCOCCOCCC(=O)N3CCc4cc(Cn5nc(-c6ccc7oc(N)nc7c6)c6c(N)ncnc65)ccc4C3)[C@H](OC)C2)C[C@@H](O)[C@H](C)/C=C(\C)[C@@H](O)[C@@H](OC)C(=O)[C@H](C)C[C@H](C)/C=C/C=C/C=C/1C |  |  | patients with advanced solid tumours | intravenous, 8 mg weekly, grade 3 or higher |  | dyspnoea incidence | 0%
Clc1cc(Cl)c(-c2cc(Cl)c(Cl)c(Cl)c2Cl)cc1Cl |  |  | fresh water | 12 (unit not given), 20 °C, S100 sampler, 100 µm |  | log K(PDMS-water) | 6.73 ± 0.1
C[C@@H]1NC(=O)[C@H](CCCCNC(=O)CO/N=C/C(=O)NCCCC[C@@H]2NC(=O)[C@@H](Cc3ccccc3)NC(=O)[C@H](CC(=O)O)NC(=O)CNC(=O)[C@H](CCCNC(=N)N)NC2=O)NC(=O)CNC(=O)[C@@H]2CCCN2C(=O)[C@H](CCCCNC(=O)CO/N=C/C(=O)NCCCC[C@@H]2NC(=O)[C@@H](Cc3ccccc3)NC(=O)[C@H](CC(=O)O)NC(=O)CNC(=O)[C@H](CCCNC(=N)N)NC2=O)NC(=O)[C@H](CCCCNC(=O)CN2CCCNCCNCCCNCC2)NC(=O)[C@H](CCCCNC(=O)CO/N=C/C(=O)NCCCC[C@@H]2NC(=O)[C@@H](Cc3ccccc3)NC(=O)[C@H](CC(=O)O)NC(=O)CNC(=O)[C@H](CCCNC(=N)N)NC2=O)NC(=O)CNC(=O)[C@@H]2CCCN2C(=O)[C@H](CCCCNC(=O)CO/N=C/C(=O)NCCCC[C@@H]2NC(=O)[C@@H](Cc3ccccc3)NC(=O)[C@H](CC(=O)O)NC(=O)CNC(=O)[C@H](CCCNC(=N)N)NC2=O)NC1=O [copper-64 labelled] |  |  | normal mice, pancreas | intravenous, 0.74 MBq, 3 h post-injection |  | tissue uptake | 0.51 ± 0.05 %ID/g
O=[N+]([O-])c1cc2c3c(ccc2c2ccccc12)[C@@H](O)[C@H](O)C=C3 |  | item: others mammary tumours | female Sprague-Dawley rats | intramammary, 12.3 µmol per rat, up to 32 weeks |  | tumours per rat | 0
CC1(C)C(C=C(Cl)Cl)C1C(=O)OC(C#N)c1ccc(F)c(Oc2ccccc2)c1 (stereo not drawn) |  | item: CYP2C19 | human, age 6 months, recombinant human CYP2C19 | 0.1 µM |  | enzyme contribution to clearance | 0.42%
COc1cc2c(cc1C(F)(F)F)N(C(=O)Nc1cc(F)cc(-c3cccnc3)c1)CC2 | Plasmodium falciparum |  | Dd2 |  |  | IC50 | 7.94 µM
CC(C)[C@@H]1NC(=O)CNC(=O)[C@H](CC(N)=O)NC(=O)[C@H](CCCNC(=N)N)NC(=O)[C@H](Cc2ccc(O)cc2)NC(=O)[C@H](C(C)C)NC(=O)[C@@H](NC(=O)[C@@H](NC(=O)[C@H](CC(N)=O)NC(=O)[C@H](Cc2c[nH]c3ccccc23)NC(=O)[C@H](C)NC(=O)[C@H](Cc2ccccc2)NC(=O)CN)C(C)C)CSSC[C@@H](C(=O)N[C@@H](Cc2c[nH]cn2)C(=O)N[C@@H](CCCNC(=N)N)C(=O)N[C@@H](CCCNC(=N)N)C(=O)N[C@@H](C)C(=O)N[C@@H](CC(N)=O)C(N)=O)NC(=O)[C@H](C(C)C)NC(=O)[C@H](CCCNC(=N)N)NC1=O |  | circular dichroism, item: α-Helix | PBS | 80 µM, pH 7.4, added: LPS 1 µM |  | secondary structure content | 5.96%
CCOc1cc(Oc2ccc(C(F)(F)F)cc2Cl)ccc1[N+](=O)[O-] |  |  | rat, male | 250 mg/kg, 4 days |  | final body weight | 91 ± 4.1 g
C[C@@H](NC(=O)N1C(=O)[C@H](Cc2ccnc(N)c2)[C@H]1C(=O)O)C1CCCCC1 |  |  | healthy adult Chinese volunteers | continuous intravenous infusion, 1.5 mg/kg/h, 5-day infusion, CTCAE 5.0 grading |  | incidence of mild AEs | 12.5%
OC(CCN1CCCCC1)(c1ccccc1)C1CCCCC1 (stereo not drawn) | Plasmodium falciparum |  | HB3 |  |  | IC50 | 10 µM
COc1ccc2nc3cc(Cl)ccc3c(Nc3cc(CN4CCCC4)c(O)c(CN4CCCC4)c3)c2n1 |  |  | mouse, blood | intraperitoneal, 14 mg/kg |  | lymphocytes | 66.7%
CC(=O)N1CCC(C(=O)N2CCN3C(=O)c4cc(-c5ccccc5)ccc4NC(=O)C3C2)CC1 (stereo not drawn) | Salmonella typhimurium |  | TA98 | 50 µg/plate | relative to: vehicle | fold increase in revertants | 0.9
C[C@H]1CN(c2n[nH]c3nc(N[C@H]4CC[C@H](NS(=O)(=O)CCC(F)(F)F)CC4)ncc23)CCO1 | PSMD3 (Homo sapiens, UniProt O43242) | inhibitor, Kinobeads competition profiling |  | 0.16 µM | relative to: vehicle | relative abundance | 0.9
O[C@H]1CCCN[C@@H]1CCCn1cnc2c(Cl)c(Cl)ccc21 |  |  | healthy humans, plasma | oral, 150 mg, added: pirfenidone 600 mg |  | Cmax at steady state | 326 ng/mL

Excerpt of the above:
Compound | target or system | test | system | conditions | scale | measurement | result
CN[C@H]1CC[C@@H](c2ccc(Cl)c(Cl)c2)c2ccccc21 |  |  | CD-1 mouse, male, lung | intraperitoneal, 1 mg/kg |  | Tmax | 1 h
N.N.[Cl][Pt][Cl] |  |  | mouse xenograft model | dose not given, day 10, group mean |  | body weight | 19.2 g
Clc1cc(Cl)c(-c2cc(Cl)c(Cl)cc2Cl)cc1Cl |  |  | fresh water | 20 °C, S30-1 sampler, 30 µm |  | log K(PDMS-water) | 6.39 ± 0.06
CCc1ccc(CC/C=C/c2ccc3c(c2)C(=O)CC3)cc1 |  |  | Sprague-Dawley rat, male | oral, 450 mg/kg/day, 14 days |  | Erythrocyte percentage | 13.5%
